Measurements from different studies.
Every numbered part comes from another study and shows a few of its results, in no order. Positions count from the first letter of the parent shown.

Block 1 — technique: protein binding microarray; molecule type: double-stranded DNA, one strand shown; medium: in vitro; concentration: not given; reference: not given; reading: higher = stronger binding
Target: Histone acetyltransferase KAT6A, both winged helices, GST fusion (KAT6A, Homo sapiens, UniProt Q92794, residues 1-181)
Notes: 8-mer, flanks averaged, mean of 2 arrays, mostly near background
Construct (chain): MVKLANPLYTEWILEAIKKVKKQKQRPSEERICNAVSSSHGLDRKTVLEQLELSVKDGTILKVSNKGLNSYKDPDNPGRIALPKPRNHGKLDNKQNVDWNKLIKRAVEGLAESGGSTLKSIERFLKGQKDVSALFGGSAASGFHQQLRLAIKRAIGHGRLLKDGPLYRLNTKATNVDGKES
For `CACACCCA`, the E-score was -0.0638.
For `ATACTATA`, the E-score was -0.0266.
The E-score of `CGTTGATA` is reported as 0.125.
`GGATGCTA` gave an E-score of -0.108.
The E-score of `AGATTCGG` is reported as -0.0835.
The E-score of `GAAAGGTA` is reported as -0.0757.
With `CCAATGCG` the E-score was 0.164.
The E-score of `AGTTTCGC` is reported as 0.0883.
With `GTGACCAC` the E-score was -0.0322.
`CAAGAAAG` has an E-score of -0.25.
`CGTGCCCC` has an E-score of 0.0433.
With `CAAAGGGG` the E-score was -0.251.
The E-score of `AGAGAATG` is reported as -0.141.
With `AAATCCTA` the E-score was -0.175.
The E-score of `TCGCTCAA` is reported as 0.0726.
The E-score of `AAGTCCCT` is reported as -0.168.
`AGTACATG` gave an E-score of -0.149.

Block 2 — technique: DHFR PCA, deep sequencing; medium: yeast; added: (+)-ABA 58 µM; reference: wild-type fitted maximum; reading: higher = stronger binding
Target: ABI1, truncated, D143A, DHFR fusion (Arabidopsis thaliana)
Notes: methotrexate growth selection, single substitutions
Parent: PYL1, truncated, DHFR fusion (Arabidopsis thaliana); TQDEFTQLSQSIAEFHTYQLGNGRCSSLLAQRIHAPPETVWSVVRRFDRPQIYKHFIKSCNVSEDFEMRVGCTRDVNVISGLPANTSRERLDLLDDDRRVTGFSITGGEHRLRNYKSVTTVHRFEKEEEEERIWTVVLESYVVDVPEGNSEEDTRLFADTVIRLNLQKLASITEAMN
`R163E`: “relative binding score” 53.1%.
Under “relative binding score”, `Y18T` is recorded as 68.6%.
`I57F` — result for “relative binding score”: 4.09%.
`K126M`: “relative binding score” 94.3%.
`H16N`: “relative binding score” 5.3%.
`C60K`: “relative binding score” -3.09%.
For `K58Y`, “relative binding score” read 72.1%.
For `V145H`, “relative binding score” read 1.61%.
Under “relative binding score”, `N149H` is recorded as 31.1%.
`T86N`: “relative binding score” 85.2%.
Under “relative binding score”, `N61K` is recorded as 94.4%.
For `T1M`, “relative binding score” read 89.5%.
`H34A` — result for “relative binding score”: 87%.
Under “relative binding score”, `C25I` is recorded as 82.9%.

Block 3 — technique: EMSA with sequencing; molecule type: double-stranded DNA, one strand shown; medium: in vitro; concentration: 10 and 20 nM; reference: negative control set to 0; reading: higher = stronger binding
Target: Hepatocyte nuclear factor 3-alpha (Foxa1, Mus musculus, UniProt P35582, residues 1-468, full length assumed)
Sequence of UniProt P35582 (whole entry, looked up): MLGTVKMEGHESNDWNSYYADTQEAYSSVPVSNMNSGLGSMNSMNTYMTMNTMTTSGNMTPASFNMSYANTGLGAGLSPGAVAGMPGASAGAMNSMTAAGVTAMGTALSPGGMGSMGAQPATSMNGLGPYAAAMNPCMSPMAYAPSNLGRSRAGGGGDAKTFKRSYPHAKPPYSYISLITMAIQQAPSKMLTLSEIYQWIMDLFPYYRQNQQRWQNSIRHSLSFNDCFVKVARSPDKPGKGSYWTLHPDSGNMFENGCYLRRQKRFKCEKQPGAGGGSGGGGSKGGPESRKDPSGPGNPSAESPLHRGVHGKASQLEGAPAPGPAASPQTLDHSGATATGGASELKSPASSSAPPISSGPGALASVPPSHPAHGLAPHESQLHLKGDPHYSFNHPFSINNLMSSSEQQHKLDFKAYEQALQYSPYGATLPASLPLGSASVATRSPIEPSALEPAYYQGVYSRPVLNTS
Notes: whole designed probe, mean of two concentrations, ends assumed
For `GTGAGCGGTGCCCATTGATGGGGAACCAGCTTTTCATATCTGGCCATCTTAGAGCAGGGGAGATTGAGAAACAGAGAGAGGAAGAACCAGGGAAAGAAGTCTGGCTCCAAGCCCAGTGGGTAAACATGCTGGCTGCCTTCTCACACAGATTACTTTTCAAAAATGAAAAGGGAGTGTCCAGCTTCGTTTGGAATAAAGATGAGGAAATGACTCTCAGCTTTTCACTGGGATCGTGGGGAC`, “normalised bound fraction” read 0.0849 ratio.
`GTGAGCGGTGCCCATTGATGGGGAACACTCGTAGCAGTTGGAATCTTGATCTGTATAACATGCACCTTAAAAGGGCATGATCAAAACAGAAACAAATGTTTTTCTGTGTGACCCTCTCTGTTTACTCAGCTCCTAGAAAAAAAGCAGTTAACCTACCATGTCCATGCACTTAGTAGGGACCACCCTGGCATTTCACTCCATATTCCAGCCATTGTAGGGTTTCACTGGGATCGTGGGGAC`: “normalised bound fraction” 0.341 ratio.
`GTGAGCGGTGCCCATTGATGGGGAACTCTAATCCATACCAAGGATTCCCATGGGGAAACTGTTATCTCTCAACTCAGTGAGGGCTATTGACAAAGACCAGTGCTCTTTCTTCTCTGTAGGTAAACAGAGACTCTTGCAAGCCTGAGGGAGAAAATACAGTATATCTAAGAGTTAAGACCTCCCAGCTTCACATTCTGTTATAGCAGCTGCTTCATGCCATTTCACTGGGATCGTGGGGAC` — result for “normalised bound fraction”: 0.247 ratio.
`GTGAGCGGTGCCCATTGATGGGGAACGTGTGTGCGCGCGCGTGTGTGTGTGTTTTCTTAAGCCGGGCTATTCAAACCCTGCTGCAATTCTCCCAATGATTCATGGTAAAGGGGCACGTTTATTTGCATTAGATTGCAAACGGCGCGGTTCGCGCACTTTGCAGCCGGCCCGGTGGAGCAGCCAGTGCCGGATTTCTCCCTTTTTTTGCAGATCTGCAGATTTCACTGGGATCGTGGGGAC` — result for “normalised bound fraction”: 0.446 ratio.
For `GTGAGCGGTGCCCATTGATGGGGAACGTTCCACTCACAGCTTGACAAGTGAACTCTTTGTCAATGACAAGGCAAAGGTTAATGATTAACAGGCACTGTATTTACCAACTTAGGAACTAAATAATCTGAATCCAGACAGGATACCATTAAGAGTTGCAGCATCACCAAAAATATCTGGCTGATTGACTGAATGTCGTCGCTTTTCTTTTTCTTTTTTTGATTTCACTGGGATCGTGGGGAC`, “normalised bound fraction” read 0.0675 ratio.

Block 4 — technique: RNA Bind-n-Seq; molecule type: RNA; medium: in vitro; concentration: 200 nM; notes: whole 134-nt RNA, ends assumed; added: 150 mM LiCl; reference: input library; reading: higher = stronger binding; each molecule: 7-deaza-guanosine replaces G
Target: Ras GTPase-activating protein-binding protein 1, full length (G3BP1, Homo sapiens, UniProt Q13283)
Sequence of UniProt Q13283 (whole entry, looked up): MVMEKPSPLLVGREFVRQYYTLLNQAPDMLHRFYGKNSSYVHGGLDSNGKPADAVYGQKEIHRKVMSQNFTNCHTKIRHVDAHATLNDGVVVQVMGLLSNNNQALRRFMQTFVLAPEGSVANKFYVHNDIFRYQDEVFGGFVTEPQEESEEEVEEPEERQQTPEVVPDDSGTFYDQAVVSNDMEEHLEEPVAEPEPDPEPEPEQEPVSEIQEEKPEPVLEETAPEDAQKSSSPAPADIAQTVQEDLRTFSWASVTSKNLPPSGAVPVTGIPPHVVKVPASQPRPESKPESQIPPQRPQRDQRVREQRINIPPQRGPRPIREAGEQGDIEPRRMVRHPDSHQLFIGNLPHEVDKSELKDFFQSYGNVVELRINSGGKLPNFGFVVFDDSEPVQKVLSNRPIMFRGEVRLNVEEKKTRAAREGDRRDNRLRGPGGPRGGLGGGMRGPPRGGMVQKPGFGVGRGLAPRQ
The log2 enrichment of `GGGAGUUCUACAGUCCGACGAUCUGGCCCUGGUGGCAUGCGGGGAGGAAGAGGUGGCCUCAUGGAUCGUGGUGGUCACGGUGGAAUGUUCAGAGGUGGCCGUGGUGGAGACAGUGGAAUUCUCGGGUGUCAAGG` is reported as 0.522.
The log2 enrichment of `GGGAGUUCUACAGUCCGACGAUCAGUCCUGUGCUACACAUCGUAUGUACCGAAUCAAAGUGUGUGUGUGUGUGUGUGUAAAAAAGUAUUAUGUUACGCCGUUCGGAUCUGCACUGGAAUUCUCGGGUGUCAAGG` is reported as -0.847.
`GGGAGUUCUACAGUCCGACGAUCUUCCUCAGGGUAGAACUGGAUGACUCAGACGUGUUCCAUGGUGAACCUGAACCUGAGGAGCUGCCUGGAGGUAAGGGCCCUGAACUGUCCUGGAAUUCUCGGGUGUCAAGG` has a log2 enrichment of -2.1.
With `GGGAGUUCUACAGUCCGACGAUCCUCAAGUCCUGUGCUACACAUCGUAUGUACCGAAUCGGUGGUUUUUGGAAAGGAAAGUAUUAUGUUACGCCGUUCGGAUCUGCACUUCCAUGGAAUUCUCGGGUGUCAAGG` the log2 enrichment was 0.648.
The log2 enrichment of `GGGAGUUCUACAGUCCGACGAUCCAAGUCCUGUGCUACACAUCGUAUGUACCGAAUCGGGGAGGGGAAAGGGGUGGGGAAAGUAUUAUGUUACGCCGUUCGGAUCUGCACUUCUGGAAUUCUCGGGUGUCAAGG` is reported as 0.118.
`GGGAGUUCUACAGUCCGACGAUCAAGUCCUGUGCUACACAUCGUAUGUACCGAAUCAAAUUUAAAUUUUUAAAUUUAAAAAAGUAUUAUGUUACGCCGUUCGGAUCUGCACUUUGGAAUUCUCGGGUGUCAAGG` has a log2 enrichment of -2.72.
For `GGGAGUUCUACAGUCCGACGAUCAAAUAUCAGUGAUCAUCGCAAGGAAGGAGGCAGACAAGAGUAAGGCACACCUGACUCUUAGGACUAGCAGUCAGAACCAGGAGGAAAGGUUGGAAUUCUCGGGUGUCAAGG`, the log2 enrichment was -0.296.
`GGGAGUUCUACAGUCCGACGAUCGCAGGAAGUACAAACAAAUGGAAAUGCUUCGGAUAGUGGCAGGGGUGGGGGUUGCUAAGGAAAGGGUGGGAUGGGAGUGGGUAAAGAGUUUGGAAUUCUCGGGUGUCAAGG` gave a log2 enrichment of 0.428.

For quick reference, copied from above (block 2):
Under “relative binding score”, `N61K` is recorded as 94.4%.
`R163E`: “relative binding score” 53.1%.
`T86N`: “relative binding score” 85.2%.
Under “relative binding score”, `N149H` is recorded as 31.1%.
Under “relative binding score”, `C25I` is recorded as 82.9%.
